Assay results from different studies.
Numbered parts are unrelated; each lists some results of a single study.

Study 1 — technique: universal PBM; molecule type: double-stranded DNA, one strand shown; sample: in vitro; concentration: 600 nM; reading: higher = stronger binding; measurement: E-score
Target: Sal-like protein 4, full length isoform A (SALL4, Homo sapiens, UniProt Q9UJQ4, residues 1-1053)
Sequence of UniProt Q9UJQ4 (whole entry, looked up): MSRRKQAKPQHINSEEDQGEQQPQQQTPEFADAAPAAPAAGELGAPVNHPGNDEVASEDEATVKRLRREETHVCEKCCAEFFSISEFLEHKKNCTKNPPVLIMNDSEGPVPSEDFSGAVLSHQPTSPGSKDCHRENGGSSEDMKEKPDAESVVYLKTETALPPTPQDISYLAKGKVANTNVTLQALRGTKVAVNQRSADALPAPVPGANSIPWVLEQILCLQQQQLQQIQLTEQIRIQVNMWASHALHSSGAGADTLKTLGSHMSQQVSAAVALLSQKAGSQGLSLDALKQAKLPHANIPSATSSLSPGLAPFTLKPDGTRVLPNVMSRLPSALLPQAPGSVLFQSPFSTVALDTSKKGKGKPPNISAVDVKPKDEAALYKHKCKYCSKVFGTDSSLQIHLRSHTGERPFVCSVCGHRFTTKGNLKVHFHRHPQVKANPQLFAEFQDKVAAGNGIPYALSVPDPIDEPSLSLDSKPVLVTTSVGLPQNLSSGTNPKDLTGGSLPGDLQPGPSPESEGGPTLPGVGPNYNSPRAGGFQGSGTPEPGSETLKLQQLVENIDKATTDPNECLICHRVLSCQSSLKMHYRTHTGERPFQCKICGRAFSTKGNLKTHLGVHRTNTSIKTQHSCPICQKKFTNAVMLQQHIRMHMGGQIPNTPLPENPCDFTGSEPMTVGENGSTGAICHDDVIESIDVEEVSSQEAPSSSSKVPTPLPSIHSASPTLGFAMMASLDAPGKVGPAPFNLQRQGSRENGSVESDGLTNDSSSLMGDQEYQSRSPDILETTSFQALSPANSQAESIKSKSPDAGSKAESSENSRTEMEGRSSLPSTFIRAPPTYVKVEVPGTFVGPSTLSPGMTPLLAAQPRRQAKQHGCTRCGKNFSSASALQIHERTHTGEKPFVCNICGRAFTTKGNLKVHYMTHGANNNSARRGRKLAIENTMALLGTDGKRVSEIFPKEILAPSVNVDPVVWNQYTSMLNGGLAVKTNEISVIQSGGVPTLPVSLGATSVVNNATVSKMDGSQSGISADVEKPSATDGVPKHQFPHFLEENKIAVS
Setting: 8-mer, flanks averaged, mean of replicates
CTCATGGC: -0.178
CCGGCGAA: -0.214
ACGACACT: -0.107
CTCGGTGA: -0.114

Study 2 — technique: protein binding microarray; molecule type: double-stranded DNA, one strand shown; sample: in vitro; concentration: not given; relative to: not given; reading: higher = stronger binding; measurement: E-score
Target: Histone acetyltransferase KAT6A, winged helix 1, GST fusion (KAT6A, Homo sapiens, UniProt Q92794, residues 1-85)
Setting: 8-mer, flanks averaged, mean of 2 arrays, mostly near background
Target sequence (chain): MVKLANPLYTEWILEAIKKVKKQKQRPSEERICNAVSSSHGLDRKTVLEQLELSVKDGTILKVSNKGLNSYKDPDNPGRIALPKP
GCCCGTAC: 0.33
CACGTGCC: -0.194
GATCCCAA: -0.199
CCCCACGG: 0.205
AAATTTAC: -0.162
CCGAGGCG: 0.274

Study 3 — technique: protein-binding microarray; molecule type: double-stranded DNA, one strand shown; sample: in vitro; concentration: 940 nM top; setting: 60-bp whole probe; added: salmon DNA 0.4 mg/ml; relative to: random background probes; reading: higher = stronger binding; measurement: fitted relative affinity
Target: Interferon regulatory factor 5, full length, phosphomimetic (IRF5, Homo sapiens, UniProt Q13568-2, residues 1-514, S451D/S453D/S456D/S462D)
GCCTAGCACTTAGGTTTCGACTATCAGTTAGTGCTAGTCTTGATTCGCTTGACGCTGCTG: 9.59 z-score
GCCTAGCACTCAGATGTGGGACTCACACTGTGCTAGGTCTTGATTCGCTTGACGCTGCTG: -0.573 z-score
GCCTAGCACGACGGTTTTCTACTGCTGACGTGCTAGGTCTTGATTCGCTTGACGCTGCTG: 0.842 z-score

Single results of other studies
PhoQ, residues 284 288 289 292 302 303 ALASRC  fold induction (PhoP, residues 12 14 15 18 19 YHFSH (Escherichia coli, UniProt P23836); Sort-seq, measured: YFP reporter; E. coli; PhoQ-PhoP variant library, added: 10 µM Mg2+; relative to: high Mg2+ state, higher = stronger signaling): 8.74

Some of these lines once more (study 2):
CCGAGGCG: 0.274
CACGTGCC: -0.194
